Measurements pooled from the literature.
Parts stem from different laboratories: compare values within a part only. Values joined by “and” are separate records of one study, mostly repeats; a detail may differ.
UniProt P15056, sequence (whole entry, looked up): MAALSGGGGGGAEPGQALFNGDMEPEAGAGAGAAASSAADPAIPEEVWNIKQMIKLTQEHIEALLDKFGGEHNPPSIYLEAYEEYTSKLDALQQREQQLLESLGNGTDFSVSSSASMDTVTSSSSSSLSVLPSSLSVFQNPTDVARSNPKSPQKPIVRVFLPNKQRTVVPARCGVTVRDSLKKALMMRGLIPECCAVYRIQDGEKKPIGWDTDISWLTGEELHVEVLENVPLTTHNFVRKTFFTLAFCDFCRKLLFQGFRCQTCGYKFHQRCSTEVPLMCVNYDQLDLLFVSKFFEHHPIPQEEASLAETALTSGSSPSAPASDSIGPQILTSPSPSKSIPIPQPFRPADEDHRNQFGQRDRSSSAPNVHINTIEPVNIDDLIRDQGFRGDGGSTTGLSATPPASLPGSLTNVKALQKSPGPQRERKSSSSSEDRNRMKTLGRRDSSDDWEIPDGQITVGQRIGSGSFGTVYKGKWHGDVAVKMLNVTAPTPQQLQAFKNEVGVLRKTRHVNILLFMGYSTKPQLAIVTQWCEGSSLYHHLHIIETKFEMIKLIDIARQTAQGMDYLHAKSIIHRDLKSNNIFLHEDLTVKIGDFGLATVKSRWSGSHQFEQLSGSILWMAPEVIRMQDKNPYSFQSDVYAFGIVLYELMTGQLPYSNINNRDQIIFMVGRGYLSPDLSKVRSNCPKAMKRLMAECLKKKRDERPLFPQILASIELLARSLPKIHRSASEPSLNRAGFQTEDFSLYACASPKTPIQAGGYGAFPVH
UniProt Q9H093, sequence (whole entry, looked up): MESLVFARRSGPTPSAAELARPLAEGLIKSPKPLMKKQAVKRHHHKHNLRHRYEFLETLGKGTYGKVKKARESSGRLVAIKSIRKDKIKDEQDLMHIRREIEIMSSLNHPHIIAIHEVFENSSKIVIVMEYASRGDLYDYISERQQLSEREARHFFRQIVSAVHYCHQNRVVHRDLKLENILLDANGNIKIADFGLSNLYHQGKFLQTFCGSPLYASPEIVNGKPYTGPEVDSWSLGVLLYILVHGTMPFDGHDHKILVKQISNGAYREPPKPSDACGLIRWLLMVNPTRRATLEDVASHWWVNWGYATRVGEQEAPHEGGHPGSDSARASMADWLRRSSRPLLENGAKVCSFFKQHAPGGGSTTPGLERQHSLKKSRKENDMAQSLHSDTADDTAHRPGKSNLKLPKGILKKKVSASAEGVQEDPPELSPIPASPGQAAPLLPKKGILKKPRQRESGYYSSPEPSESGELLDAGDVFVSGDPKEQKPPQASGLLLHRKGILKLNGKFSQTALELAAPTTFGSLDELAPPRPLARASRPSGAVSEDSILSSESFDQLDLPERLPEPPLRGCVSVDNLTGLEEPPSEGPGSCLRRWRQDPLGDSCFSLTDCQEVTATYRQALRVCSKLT
UniProt Q7L7X3, sequence (whole entry, looked up): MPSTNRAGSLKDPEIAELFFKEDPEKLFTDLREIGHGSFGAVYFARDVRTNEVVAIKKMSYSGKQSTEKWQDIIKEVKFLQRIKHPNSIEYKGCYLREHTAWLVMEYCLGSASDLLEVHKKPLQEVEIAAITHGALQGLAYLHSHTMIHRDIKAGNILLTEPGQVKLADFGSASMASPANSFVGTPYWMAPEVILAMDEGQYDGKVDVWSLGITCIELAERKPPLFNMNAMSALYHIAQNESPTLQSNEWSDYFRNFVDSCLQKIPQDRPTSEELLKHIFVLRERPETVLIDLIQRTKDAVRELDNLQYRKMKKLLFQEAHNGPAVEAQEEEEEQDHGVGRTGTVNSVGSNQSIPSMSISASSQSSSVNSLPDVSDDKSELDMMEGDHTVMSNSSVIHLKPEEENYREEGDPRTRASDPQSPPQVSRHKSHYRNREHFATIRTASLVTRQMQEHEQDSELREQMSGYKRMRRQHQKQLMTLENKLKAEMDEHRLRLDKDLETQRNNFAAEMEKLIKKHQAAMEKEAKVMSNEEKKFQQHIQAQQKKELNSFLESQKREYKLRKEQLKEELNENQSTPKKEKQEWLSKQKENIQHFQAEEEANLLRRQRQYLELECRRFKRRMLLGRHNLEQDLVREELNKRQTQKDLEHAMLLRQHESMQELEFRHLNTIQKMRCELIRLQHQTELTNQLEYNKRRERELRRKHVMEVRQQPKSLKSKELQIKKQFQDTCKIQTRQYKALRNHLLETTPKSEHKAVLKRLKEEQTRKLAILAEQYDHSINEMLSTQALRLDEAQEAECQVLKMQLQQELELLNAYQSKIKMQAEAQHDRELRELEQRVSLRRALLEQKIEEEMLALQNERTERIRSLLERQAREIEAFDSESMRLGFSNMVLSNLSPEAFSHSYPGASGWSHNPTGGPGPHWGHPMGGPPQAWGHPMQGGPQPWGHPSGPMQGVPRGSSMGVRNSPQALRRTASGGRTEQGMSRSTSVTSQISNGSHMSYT
UniProt O60331, sequence (whole entry, looked up): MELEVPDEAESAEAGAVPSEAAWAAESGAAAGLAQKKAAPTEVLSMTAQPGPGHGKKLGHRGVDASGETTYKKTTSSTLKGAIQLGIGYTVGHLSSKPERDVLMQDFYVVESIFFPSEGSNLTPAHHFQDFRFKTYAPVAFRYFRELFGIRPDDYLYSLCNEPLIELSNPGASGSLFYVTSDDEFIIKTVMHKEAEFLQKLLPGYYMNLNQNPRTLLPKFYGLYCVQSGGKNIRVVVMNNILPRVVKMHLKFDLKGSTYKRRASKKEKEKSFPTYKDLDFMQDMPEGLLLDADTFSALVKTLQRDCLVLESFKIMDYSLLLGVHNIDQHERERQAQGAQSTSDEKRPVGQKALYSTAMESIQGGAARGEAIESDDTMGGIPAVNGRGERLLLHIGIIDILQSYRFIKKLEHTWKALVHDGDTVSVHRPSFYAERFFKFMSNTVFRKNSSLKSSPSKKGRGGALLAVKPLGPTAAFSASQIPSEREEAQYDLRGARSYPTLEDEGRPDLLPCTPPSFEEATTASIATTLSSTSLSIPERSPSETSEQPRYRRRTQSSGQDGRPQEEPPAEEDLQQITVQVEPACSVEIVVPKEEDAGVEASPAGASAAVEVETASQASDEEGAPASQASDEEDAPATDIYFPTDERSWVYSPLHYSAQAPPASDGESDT
UniProt Q9UQM7, sequence (whole entry, looked up): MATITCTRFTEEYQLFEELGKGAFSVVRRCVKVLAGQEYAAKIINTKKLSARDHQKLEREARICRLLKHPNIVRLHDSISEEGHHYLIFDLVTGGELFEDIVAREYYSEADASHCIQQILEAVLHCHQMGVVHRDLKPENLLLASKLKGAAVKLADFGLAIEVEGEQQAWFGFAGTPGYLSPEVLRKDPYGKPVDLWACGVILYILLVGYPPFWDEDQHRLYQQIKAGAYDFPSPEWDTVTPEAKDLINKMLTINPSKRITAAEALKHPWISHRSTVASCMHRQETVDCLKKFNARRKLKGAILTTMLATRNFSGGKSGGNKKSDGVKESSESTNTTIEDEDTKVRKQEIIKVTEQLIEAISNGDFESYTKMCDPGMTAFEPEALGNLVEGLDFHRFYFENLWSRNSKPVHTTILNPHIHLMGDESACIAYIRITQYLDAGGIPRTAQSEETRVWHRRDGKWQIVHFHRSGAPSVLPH
UniProt O43293, sequence (whole entry, looked up): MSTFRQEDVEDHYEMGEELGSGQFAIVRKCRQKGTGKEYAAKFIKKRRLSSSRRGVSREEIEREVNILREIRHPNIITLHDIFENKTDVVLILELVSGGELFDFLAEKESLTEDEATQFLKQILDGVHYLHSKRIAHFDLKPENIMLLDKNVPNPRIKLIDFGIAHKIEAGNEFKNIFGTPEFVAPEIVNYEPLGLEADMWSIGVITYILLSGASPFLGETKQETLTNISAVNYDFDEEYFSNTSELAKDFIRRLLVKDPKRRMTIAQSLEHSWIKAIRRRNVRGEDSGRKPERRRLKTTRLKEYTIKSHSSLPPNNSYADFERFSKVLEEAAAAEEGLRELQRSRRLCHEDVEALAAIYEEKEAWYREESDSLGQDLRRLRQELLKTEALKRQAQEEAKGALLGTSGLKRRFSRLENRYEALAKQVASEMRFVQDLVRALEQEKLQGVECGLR

Sample 1
Cell line: mouse MPNST tumor cells
Method: high-content nuclear imaging
Refers to: cell number
Tested at: 10 µM
Time: 12 h
Notes: mean of 2 replicates
Reference: plate mean
Direction: higher = more cells
SMILES | nuclei count
CC#CCOC(=O)c1c(C)nc2sc3c(c2c1N)CCC(O)C3 (centres unmarked) | 2.11 z-score
CCOc1ccccc1OCCN[C@H](C)Cc1ccc(OC)c(S(N)(=O)=O)c1 | -0.323 z-score
Cc1cccc(C#Cc2ccccc2)n1 | 0.634 z-score
C=C[C@@]1(C)CC(=O)[C@]2(O)[C@@]3(C)[C@@H](O)CCC(C)(C)[C@@H]3[C@H](O)[C@H](OC(C)=O)[C@@]2(C)O1 | 2.04 z-score
Cc1ccsc1C(=CCCN1CCC[C@@H](C(=O)O)C1)c1sccc1C | -0.686 z-score and 1.79 z-score
CC(C)NC(=N)NC(=N)Nc1ccc(Cl)cc1 | 1.81 z-score and 0.89 z-score
CCOC(=O)/C=C(C)/C=C/C=C(C)/C=C/c1c(C)cc(OC)c(C)c1C | -1.93 z-score
CCn1c(-c2nonc2N)nc2cncc(C(=O)N3CC[C@H](N)C3)c21 | -1.38 z-score

Sample 2
SMILES: CNC(=O)c1ccc(Nc2ncc(C(F)(F)F)c(NCc3nccnc3N(C)S(C)(=O)=O)n2)cc1
Effect on: cell-free assay
Method: competition with immobilised ligand
Tested at: 0.1 µM
target | remaining binding [%]
NTRK2 (Homo sapiens, UniProt Q16620) | 21
EPHA6 (Homo sapiens, UniProt Q9UF33) | 85
TAOK1 (Homo sapiens, UniProt Q7L7X3) | 50
EPHA5 (Homo sapiens, UniProt P54756) | 64
Ribosomal protein S6 kinase alpha-6, C-terminal kinase domain (RPS6KA6, Homo sapiens, UniProt Q9UK32) | 49
KIT (Homo sapiens, UniProt P10721) | 84
ACVR1 (Homo sapiens, UniProt Q04771) | 100
GSK3B (Homo sapiens, UniProt P49841) | 87
FLT3 (Homo sapiens, UniProt P36888, ITD) | 26
PIP5K1A (Homo sapiens, UniProt Q99755) | 98
DAPK3 (Homo sapiens, UniProt O43293) | 75
NUAK2 (Homo sapiens, UniProt Q9H093) | 53
PIP5K1C (Homo sapiens, UniProt O60331) | 100

Sample 3
Organism: Sarcocystis neurona
Effect on: parasite activity
Tested at: 10 µM
Time: 96 h
SMILES | activity class
COC1=C(OC)C(=O)C(CCCCCCCCCCO)=C(C)C1=O | inactive
CC(=O)OCC[N+](C)(C)C | inactive
CCOC(=O)[C@H](CCc1ccccc1)N[C@@H](C)C(=O)N1CCC[C@H]1C(=O)O | inactive
CCOC(=O)[C@H](CCc1ccccc1)N[C@@H](C)C(=O)N1[C@H](C(=O)O)C[C@@H]2CCC[C@@H]21 | inactive
CN(C/C=C/C#CC(C)(C)C)Cc1cccc2ccccc12 | inactive
CC(C(=O)O)c1ccc(-c2ccccc2)c(F)c1 (centres unmarked) | inactive
Cn1nnc2c(C(N)=O)ncn2c1=O | inactive
CCN1CCN(c2cc3c(cc2F)c(=O)c(C(=O)O)cn3C2CC2)CC1 | inactive
C[C@H]1O[C@@H](O[C@H]2[C@@H](O)C[C@H](O[C@H]3[C@@H](O)C[C@H](O[C@H]4CC[C@@]5(C)[C@H](CC[C@@H]6[C@@H]5C[C@@H](O)[C@]5(C)[C@@H](C7=CC(=O)OC7)CC[C@]65O)C4)O[C@@H]3C)O[C@@H]2C)C[C@H](O)[C@@H]1O | inactive
CC(C)(C)NC[C@H](O)COc1nsnc1N1CCOCC1 | inactive
CCN(CC)CC(=O)Nc1c(C)cccc1C | inactive
C=C1/C(=C\C=C2/CCC[C@]3(C)[C@@H]([C@H](C)/C=C/[C@@H](O)C4CC4)CC[C@@H]23)C[C@@H](O)C[C@@H]1O | inactive
CO[C@H]1/C=C/O[C@@]2(C)Oc3c(C)c(O)c4c(O)c(c(/C=N/N5CCN(C)CC5)c(O)c4c3C2=O)NC(=O)/C(C)=C\C=C\[C@H](C)[C@H](O)[C@@H](C)[C@@H](O)[C@@H](C)[C@H](OC(C)=O)[C@@H]1C | inactive

Sample 4
SMILES: COc1cccc(-c2cc(=O)c3ccccc3o2)c1N
Effect on: enzyme activity
Mode: inhibitor
Tested at: 0.5 µM
Reference: control
target | remaining activity
CAMK2A (Homo sapiens, UniProt Q9UQM7) | 93.6%
BRAF (Homo sapiens, UniProt P15056) | 93.6%
NTRK1 (Homo sapiens, UniProt P04629) | 99.9%
TSSK1B (Homo sapiens, UniProt Q9BXA7) | 82.4%
TTK (Homo sapiens, UniProt P33981) | 99%
HASPIN (Homo sapiens, UniProt Q8TF76) | 95.7%
CHUK (Homo sapiens, UniProt O15111) | 104%

For quick reference, copied from above (sample 3):
SMILES | activity class
CN(C/C=C/C#CC(C)(C)C)Cc1cccc2ccccc12 | inactive
CC(C(=O)O)c1ccc(-c2ccccc2)c(F)c1 (centres unmarked) | inactive
